Measured values pooled from the literature.
Numbered parts are unrelated; each lists some results of a single study.

Block 1 — method: RNA Bind-n-Seq; molecule type: RNA; matrix: in vitro; tested at: 20 nM; setting: 6-mer, flanks averaged, single round; added: 150 mM LiCl; reference: input library; direction: higher = stronger binding; endpoint: 6-mer enrichment (R)
Target: TAR DNA-binding protein 43, full length, His tag (TARDBP, Homo sapiens, UniProt Q13148, residues 1-414)
Oligonucleotide = AAAUAG; result = 0.921
Oligonucleotide = GGGCAC; result = 1.05
Oligonucleotide = CUUCCC; result = 1.02
Oligonucleotide = CGGGGU; result = 1.14

Block 2 — method: RNA Bind-n-Seq; molecule type: RNA; matrix: in vitro; tested at: 1 µM; setting: whole 134-nt RNA, ends assumed; added: 150 mM KCl; reference: input library; direction: higher = stronger binding; endpoint: log2 enrichment
Target: Ras GTPase-activating protein-binding protein 1, C-terminal RGG region (G3BP1, Homo sapiens, UniProt Q13283)
Sequence of UniProt Q13283 (whole entry, looked up): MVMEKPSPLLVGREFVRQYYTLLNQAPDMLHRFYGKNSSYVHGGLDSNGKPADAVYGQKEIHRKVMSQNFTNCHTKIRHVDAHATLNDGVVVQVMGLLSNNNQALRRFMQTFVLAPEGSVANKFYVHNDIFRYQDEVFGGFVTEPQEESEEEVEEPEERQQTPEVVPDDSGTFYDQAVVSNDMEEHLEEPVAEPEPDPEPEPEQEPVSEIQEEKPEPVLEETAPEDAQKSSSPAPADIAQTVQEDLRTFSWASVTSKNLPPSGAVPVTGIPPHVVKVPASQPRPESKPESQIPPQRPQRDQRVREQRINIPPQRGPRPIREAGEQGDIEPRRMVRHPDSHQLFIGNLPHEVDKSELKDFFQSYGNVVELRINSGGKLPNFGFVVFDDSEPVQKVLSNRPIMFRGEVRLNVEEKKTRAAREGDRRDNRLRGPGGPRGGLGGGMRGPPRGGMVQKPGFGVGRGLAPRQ
All sequences stand within: GGGAGUUCUACAGUCCGACGAUC … UGGAAUUCUCGGGUGUCAAGG
Oligonucleotide = CCUGUGCUACACAUCGUAUGUACCGAAUCGGGGUUUUUUUGGUUUUUUUGGUUUUUUUGGAAAGUAUUAUGUUACGCCGUUCGGAUCUGC; result = -1.51
Oligonucleotide = AGUCCUGUGCUACACAUCGUAUGUACCGAAUCGGGGUUUUGGUUUUGGGGUUUUGGGGAAAGUAUUAUGUUACGCCGUUCGGAUCUGCAC; result = -0.216
Oligonucleotide = GUCCUGUGCUACACAUCGUAUGUACCGAAUCGGGUUUUUUUGGGUUUUUUUGGGAGGGAAAGUAUUAUGUUACGCCGUUCGGAUCUGCAC; result = -0.0766
Oligonucleotide = UGGCCCUGGUGGCAUGCGGGGAGGAAGAGGUGUCCUCAUGGAUCGUGGUGGUCCCGGUGGAAUGUUCAGAGGUGGCCGUGGUGGAGACAG; result = 1.72
Oligonucleotide = AAGUCCUGUGCUACACAUCGUAUGUACCGAAUCGGUUUGGUUUUUGGAAAAAAAGGAAAGUAUUAUGUUACGCCGUUCGGAUCUGCACUU; result = -1.73
Oligonucleotide = GAGGAGACUCUGCGCAGAGCACUUUGGGUCCGGAGGGCGAGACUCCGGCGGAAGCAUUCCCGGGCGGGUGACCCAGCACGGUCCCUCUUG; result = -1.8

Block 3 — method: protein-binding microarray; molecule type: double-stranded DNA, one strand shown; matrix: in vitro; tested at: 2540 nM top; setting: 60-bp whole probe; added: salmon DNA 0.4 mg/ml; reference: random background probes; direction: higher = stronger binding; endpoint: fitted relative affinity; all sequences stand within: GCCTAGCAC … GTCTTGATTCGCTTGACGCTGCTG
Target: Interferon regulatory factor 3, full length, phosphomimetic (IRF3, Homo sapiens, UniProt Q14653, residues 1-427, S386D/S396D/S398D/S402D/T404D/S405D)
Sequence of UniProt Q14653 (whole entry, unmodified, looked up): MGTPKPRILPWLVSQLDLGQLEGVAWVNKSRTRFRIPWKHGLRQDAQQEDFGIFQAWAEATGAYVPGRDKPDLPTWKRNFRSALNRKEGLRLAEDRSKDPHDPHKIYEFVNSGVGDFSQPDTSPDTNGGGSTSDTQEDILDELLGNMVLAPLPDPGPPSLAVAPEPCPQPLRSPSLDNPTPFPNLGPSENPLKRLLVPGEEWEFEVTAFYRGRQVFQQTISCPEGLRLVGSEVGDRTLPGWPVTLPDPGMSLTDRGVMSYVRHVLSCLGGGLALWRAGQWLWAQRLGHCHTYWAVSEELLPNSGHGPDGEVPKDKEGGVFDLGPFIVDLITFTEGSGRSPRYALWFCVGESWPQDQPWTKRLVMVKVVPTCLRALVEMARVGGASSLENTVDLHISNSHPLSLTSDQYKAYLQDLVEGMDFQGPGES
Oligonucleotide = TGAGGTTTCGACTATCGGTTAGTGCTA; result = 2.01 z-score
Oligonucleotide = TCAGTCCTCACTTCCTTCTGGTGCTAG; result = 0.359 z-score
Oligonucleotide = TTAGGACTGCTACTTCTTTAGTGCTAG; result = -0.282 z-score
Oligonucleotide = TCACTTTGCTCATTTTTCACTGTGCTA; result = 0.911 z-score
Oligonucleotide = TCATCTTTAACATATTCTACTGTGCTA; result = 1.08 z-score
Oligonucleotide = GCCGGTTTCGACACTGGGGACGTGCTA; result = 3.69 z-score

Further values, each from its own experiment
Molecule = PhoQ, residues 284 288 289 292 302 303 NSMLDC; target = PhoP, residues 12 14 15 18 19 LYFRQ (Escherichia coli, UniProt P23836); assay = Sort-seq, item: YFP reporter; system = E. coli; conditions = PhoQ-PhoP variant library, added: 10 µM Mg2+; how to read = reference: high Mg2+ state, higher = stronger signaling; endpoint = fold induction; result = 14.7

Repeated from above (block 1):
Oligonucleotide = GGGCAC; result = 1.05
Oligonucleotide = CUUCCC; result = 1.02
